Values quoted from earlier work that unrelated publications cite.
Protocols differ between the studies behind these lines. ± gives the spread as reported.
Chain of UniProt Q14004 (whole entry, looked up): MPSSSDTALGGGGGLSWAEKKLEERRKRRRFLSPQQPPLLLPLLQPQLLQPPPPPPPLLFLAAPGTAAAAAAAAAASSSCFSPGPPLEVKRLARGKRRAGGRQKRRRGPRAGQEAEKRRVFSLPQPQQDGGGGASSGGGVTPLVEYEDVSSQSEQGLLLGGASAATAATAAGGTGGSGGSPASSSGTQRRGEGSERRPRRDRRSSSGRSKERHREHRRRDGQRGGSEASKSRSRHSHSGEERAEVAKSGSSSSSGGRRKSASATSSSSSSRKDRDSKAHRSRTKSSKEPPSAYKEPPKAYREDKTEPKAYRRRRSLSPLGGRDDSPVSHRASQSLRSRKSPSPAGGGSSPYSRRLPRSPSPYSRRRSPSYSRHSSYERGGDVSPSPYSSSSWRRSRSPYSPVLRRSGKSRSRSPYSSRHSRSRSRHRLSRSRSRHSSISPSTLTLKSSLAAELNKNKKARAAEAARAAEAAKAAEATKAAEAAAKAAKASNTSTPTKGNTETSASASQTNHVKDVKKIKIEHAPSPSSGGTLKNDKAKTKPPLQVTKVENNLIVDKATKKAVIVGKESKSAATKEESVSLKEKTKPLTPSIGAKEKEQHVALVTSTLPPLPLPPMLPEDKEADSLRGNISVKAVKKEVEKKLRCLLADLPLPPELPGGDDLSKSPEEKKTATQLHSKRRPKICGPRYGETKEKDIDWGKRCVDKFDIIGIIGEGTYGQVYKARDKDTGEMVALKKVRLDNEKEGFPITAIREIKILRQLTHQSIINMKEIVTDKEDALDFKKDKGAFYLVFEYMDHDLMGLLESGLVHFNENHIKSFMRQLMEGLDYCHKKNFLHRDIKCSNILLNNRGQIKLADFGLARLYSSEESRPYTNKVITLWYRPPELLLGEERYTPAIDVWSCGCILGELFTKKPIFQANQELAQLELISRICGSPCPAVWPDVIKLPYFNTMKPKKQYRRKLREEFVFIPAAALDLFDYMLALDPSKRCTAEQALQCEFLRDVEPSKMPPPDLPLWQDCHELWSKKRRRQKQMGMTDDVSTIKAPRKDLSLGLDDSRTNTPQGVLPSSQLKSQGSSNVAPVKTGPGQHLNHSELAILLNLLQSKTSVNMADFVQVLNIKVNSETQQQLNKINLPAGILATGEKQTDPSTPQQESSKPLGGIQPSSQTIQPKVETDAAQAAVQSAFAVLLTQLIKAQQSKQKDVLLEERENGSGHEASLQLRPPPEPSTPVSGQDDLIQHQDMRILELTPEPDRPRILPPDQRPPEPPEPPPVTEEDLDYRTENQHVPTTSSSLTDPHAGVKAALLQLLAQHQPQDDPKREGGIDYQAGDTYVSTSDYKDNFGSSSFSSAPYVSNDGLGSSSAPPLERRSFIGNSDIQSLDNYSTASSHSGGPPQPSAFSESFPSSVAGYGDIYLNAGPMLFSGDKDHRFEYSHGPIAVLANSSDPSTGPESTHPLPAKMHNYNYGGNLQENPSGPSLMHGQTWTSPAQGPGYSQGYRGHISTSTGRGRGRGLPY

SMILES	target or system	test	system	conditions	how to read	quantity	result
CC(C)(C)c1ccc(S(=O)(=O)Nc2ccc(Cl)cc2C(=O)c2cc[n+]([O-])cc2)cc1	–	–	human	dose not given	–	Cmax	2200 nM
CC(=O)[C@]1(O)Cc2c(O)c3c(c(O)c2[C@@H](O[C@H]2C[C@H](N)[C@H](O)[C@H](C)O2)C1)C(=O)c1ccccc1C3=O	–	–	human, plasma	concentration not given	–	Cmax	88 nM
CO[C@@H](C)Cn1c(=O)n(C)c2cnc3ccc(-c4cncc(C(C)(C)O)c4)cc3c21	–	–	human	single 200 mg dose, monotherapy, geometric mean	–	Cmax	828 ng/mL
C[C@H]1CO[C@@H]2Cn3cc(C(=O)NCc4ccc(F)cc4F)c(=O)c(O)c3C(=O)N12	–	–	human	oral tablet, two 5 mg tablets, geometric mean fasted	–	Cmax	1130 ng/mL
C=CC(=O)N1CCC([C@@H]2CCNc3c(C(N)=O)c(-c4ccc(Oc5ccccc5)cc4)nn32)CC1	–	–	human patients	oral, 320 mg once daily, day 8	–	Cmax	608 ± 244 ng/mL
CCN(CC)CCN(CCNCCc1ccc(O)c2[nH]c(=O)sc12)C(=O)CCOCCc1cccc2ccccc12	–	–	human, plasma	inhaled, dose not given	–	Cmax	3.7 nM
Cn1c(Cn2ccc(C(F)(F)F)c(Oc3cc(Cl)cc(C#N)c3)c2=O)n[nH]c1=O	–	–	human	1200 mg single dose	–	Cmax	11200 nM
COCCCC/C(=N\OCCN)c1ccc(C(F)(F)F)cc1	–	–	human	oral, 100 mg single dose	–	Cmax	36 ng/mL
CNC(=O)c1cc(Oc2ccc(NC(=O)Nc3ccc(Cl)c(C(F)(F)F)c3)cc2)ccn1	–	–	human, plasma	concentration not given	–	Cmax	6200 nM
O=C(c1cc(Cc2n[nH]c(=O)c3ccccc23)ccc1F)N1CCN(C(=O)C2CC2)CC1	–	–	human	oral tablet, 100 mg twice daily, multiple dose	–	Cmax	3750 ng/mL
Cc1c(C)c2c(c(C)c1O)CCC(C)(COc1ccc(CC3SC(=O)NC3=O)cc1)O2 (centres unmarked)	–	–	human, plasma	oral, 400 mg single dose	–	Cmax	2000 to 4000 nM
CNC(=O)c1c(C)oc2cc(Oc3ncnc4cc(OC)c(OC)cc34)ccc12	–	–	healthy human subjects, plasma	5 mg, single dose	–	Cmax	133 ng/mL
CCN1CCN(Cc2ccc(Nc3ncc(F)c(-c4cc(F)c5nc(C)n(C(C)C)c5c4)n3)nc2)CC1	–	–	human	oral tablet, 100 mg twice daily, multiple dose	–	Cmax	205 ng/mL
Nc1cc(C(F)(F)F)c(-c2nc(N3CCOCC3)nc(N3CCOCC3)n2)cn1	CDK13 (Homo sapiens, UniProt Q14004)	enzyme activity	–	10 µM	baseline: untreated	remaining activity	80%
C[C@@H](Oc1ccc(S(C)(=O)=O)cc1C(=O)N1C[C@@H]2C[C@]2(c2cc(C(F)(F)F)on2)C1)C(F)(F)F	–	–	human	oral, 25 mg, tablet, fasted, single dose	–	Cmax	218 nM
Cn1cnc2c(F)c(Nc3ccc(Br)cc3Cl)c(C(=O)NOCCO)cc21	–	–	healthy human volunteers	oral, 25 mg single dose	–	Cmax	409 ng/mL
COc1ccccc1OCC(O)CN1CCN(CC(=O)Nc2c(C)cccc2C)CC1 (centres unmarked)	–	–	human, plasma	concentration not given, total plasma concentration	–	Cmax	14000 nM
Cc1cc(C)c(CNC(=O)c2cc(Cl)c3c(c2C)O[C@@](C)([C@H]2CC[C@H](N(C)C)CC2)O3)c(=O)[nH]1	–	–	healthy human	25 mg, arithmetic mean	–	Cmax	114 ng/mL
CNCc1cc(-c2ccccc2F)n(S(=O)(=O)c2cccnc2)c1	–	–	human, plasma	20 mg single dose, observed clinical data	–	Cmax	23 ng/mL

SMILES	target or system	test	system	conditions	how to read	quantity	result
COc1ccc2[nH]c([S+]([O-])Cc3ncc(C)c(OC)c3C)nc2c1 (centres unmarked)	–	–	human post-RYGB patients	oral tablet, 20 mg once daily, day 6, 6 months after surgery	–	Cmax	486 ng/mL
O=C(c1cccnc1-c1ccncc1)N1CCC(O)(Cc2ccccc2)CC1	–	–	human, plasma	300 mg single dose, together with: itraconazole	–	Cmax	1530 ng/mL
O=C1[C@H](CC[C@H](O)c2ccc(F)cc2)[C@@H](c2ccc(O)cc2)N1c1ccc(F)cc1	–	–	human	dose not given	–	Cmax	12 ng/mL
CCCc1nn(C)c2c(=O)[nH]c(-c3cc(S(=O)(=O)N4CCN(C)CC4)ccc3OCC)nc12	–	–	humans	oral, 100 mg, geometric mean, given alone	–	Cmax	321 ng/mL
CO[C@H]1O[C@H](COS(=O)(=O)O)[C@@H](O[C@@H]2O[C@@H](C(=O)O)[C@@H](O[C@H]3O[C@H](COS(=O)(=O)O)[C@@H](O[C@@H]4O[C@H](C(=O)O)[C@@H](O[C@H]5O[C@H](COS(=O)(=O)O)[C@@H](O)[C@H](O)[C@H]5NS(=O)(=O)O)[C@H](O)[C@H]4O)[C@H](OS(=O)(=O)O)[C@H]3NS(=O)(=O)O)[C@H](O)[C@H]2OS(=O)(=O)O)[C@H](O)[C@H]1NS(=O)(=O)O	–	–	human, plasma	concentration not given	–	Cmax	840 nM
CCc1nn(CCO)c(CC)c1Oc1cc(C#N)cc(C#N)c1	–	–	human, plasma total	1000 mg	–	Cmax	7400 nM
Cc1nsc(-c2nnc3n2CCN(C(=O)c2ccc(F)cc2)[C@@H]3C)n1	–	–	human	oral, 60 mg, day 1, fed	–	Cmax	336 ng/mL
O=C(NCC1CCCCN1)c1cc(OCC(F)(F)F)ccc1OCC(F)(F)F (centres unmarked)	–	–	human, plasma	concentration not given	–	Cmax	930 nM
OC(Cn1cncn1)(Cn1cncn1)c1ccc(F)cc1F	–	–	human	oral, 50 mg single dose	–	Cmax	1130 ng/mL
C[C@@H](Oc1cc(-c2cnn(C3CCNCC3)c2)cnc1N)c1c(Cl)ccc(F)c1Cl	–	–	human, plasma	concentration not given	–	Cmax	220 nM
COc1ccccc1Oc1c(NS(=O)(=O)c2ccc(C(C)(C)C)cc2)nc(-c2ncccn2)nc1OCCO	–	–	human	62.5 mg, 56 days	–	Cmax	2050 nM
C[C@H]1O[C@@H](O[C@H]2[C@@H](O)C[C@H](O[C@H]3[C@@H](O)C[C@H](O[C@H]4CC[C@@]5(C)[C@H](CC[C@@H]6[C@@H]5C[C@@H](O)[C@]5(C)[C@@H](C7=CC(=O)OC7)CC[C@]65O)C4)O[C@@H]3C)O[C@@H]2C)C[C@H](O)[C@@H]1O	–	–	human	oral, dose not given	–	Cmax	1.67 ng/mL
Cc1cc(C)c(CNC(=O)c2cc(Cl)c3c(c2C)O[C@@](C)([C@H]2CC[C@H](N(C)C)CC2)O3)c(=O)[nH]1	–	–	healthy human, fasted	oral, 200 mg single dose	–	Cmax	1500 ng/mL
COCCc1ccc(OCC(O)CNC(C)C)cc1 (centres unmarked)	–	–	human fasted	100 mg multiple doses, day 7, mean	–	Cmax	39 ng/mL
CC(C)n1c(Nc2cccnc2)nc2cnc(Nc3ccc(N4CCN(C)CC4)cc3)nc21	–	–	healthy human	100 mg, single dose	–	Cmax	46.4 ng/mL
Cc1cc(CCCOc2c(C)cc(-c3noc(C(F)(F)F)n3)cc2C)on1	–	–	human, plasma total	400 mg	–	Cmax	2750 nM
COc1cccc2c1C(=O)c1c(O)c3c(c(O)c1C2=O)C[C@@](O)(C(=O)CO)C[C@@H]3O[C@H]1C[C@H](N)[C@H](O)[C@H](C)O1	–	–	human, normal weight, plasma	intravenous infusion, 60 mg/m^2, 40 min infusion	–	Cmax	~1000 nM
COc1cc2c(Oc3ccc4[nH]c(C)cc4c3F)ccnc2cc1OCC1(N)CC1	–	–	human	16 mg single dose	–	Cmax	15.8 ± 3.2 ng/mL
CN1CCN(c2ccc(C(=O)Nc3n[nH]c4ccc(Cc5cc(F)cc(F)c5)cc34)c(NC3CCOCC3)c2)CC1	–	–	human, plasma	dose not given	–	Cmax	2700 nM

Repeated from above:
SMILES	target or system	test	system	conditions	how to read	quantity	result
CC(=O)[C@]1(O)Cc2c(O)c3c(c(O)c2[C@@H](O[C@H]2C[C@H](N)[C@H](O)[C@H](C)O2)C1)C(=O)c1ccccc1C3=O	–	–	human, plasma	concentration not given	–	Cmax	88 nM
CO[C@@H](C)Cn1c(=O)n(C)c2cnc3ccc(-c4cncc(C(C)(C)O)c4)cc3c21	–	–	human	single 200 mg dose, monotherapy, geometric mean	–	Cmax	828 ng/mL
C[C@H]1CO[C@@H]2Cn3cc(C(=O)NCc4ccc(F)cc4F)c(=O)c(O)c3C(=O)N12	–	–	human	oral tablet, two 5 mg tablets, geometric mean fasted	–	Cmax	1130 ng/mL
C=CC(=O)N1CCC([C@@H]2CCNc3c(C(N)=O)c(-c4ccc(Oc5ccccc5)cc4)nn32)CC1	–	–	human patients	oral, 320 mg once daily, day 8	–	Cmax	608 ± 244 ng/mL
CCN(CC)CCN(CCNCCc1ccc(O)c2[nH]c(=O)sc12)C(=O)CCOCCc1cccc2ccccc12	–	–	human, plasma	inhaled, dose not given	–	Cmax	3.7 nM
Cn1c(Cn2ccc(C(F)(F)F)c(Oc3cc(Cl)cc(C#N)c3)c2=O)n[nH]c1=O	–	–	human	1200 mg single dose	–	Cmax	11200 nM
